{"data": "Measurements collected from several papers", "note": "Lines come from different studies, so protocols differ. ± marks the error that the study gave."}
{"SMILES": "CC(C)[C@H](NC(=O)[C@@H]1CCCN1C(=O)[C@H](CCCNC(=N)N)NC(=O)[C@H](CS)NC(=O)[C@H](Cc1c[nH]c2ccccc12)NC(=O)[C@H](CCCNC(=N)N)NC(=O)[C@@H](Cc1ccccc1)NC(=O)[C@H](Cc1c[nH]cn1)NC(=O)[C@H](CCC(=O)O)NC(=O)[C@H](CS)NC(=O)[C@H](CS)NC(=O)COCCOCCNC(=O)[C@@H]1CC(=O)N[C@@H](CCCNC(=N)N)C(=O)NCC(=O)N[C@@H](CC(=O)O)C(=O)N[C@H](Cc2ccc(O)cc2)C(=O)N1)C(N)=O [technetium-99m labelled]", "system": "nude mouse, M21 melanoma xenograft, lung", "conditions": "intravenous, 2 h", "measurement": "tissue uptake", "result": "0.79 ± 0.53 %ID/g"}
{"SMILES": "COC(=O)C(c1ccccc1Cl)N1CCC(SCC(=O)c2cccc(OC)c2)C(=CC(=O)O)C1 (stereo not drawn)", "test": "LC-MS/MS", "system": "extract in autosampler", "conditions": "50 ng/mL, 24 h, 4 °C", "measurement": "measured concentration", "result": "50.1 ± 3.9 ng/mL"}
{"SMILES": "CC(C)C[C@@H]1NC(=O)[C@@H]2CCCN2C(=O)[C@H](CO)NC(=O)[C@@H](NC(=O)[C@H](Cc2c[nH]cn2)NC(=O)[C@H](CO)NC(=O)[C@H](Cc2ccc(O)cc2)NC(=O)[C@H](CC(=O)O)NC(=O)CNC(=O)CN2CCN(CC(=O)O)CCN(CC(=O)O)CCN(CC(=O)O)CC2)CSSC[C@@H](C(=O)N[C@H](C(=O)N[C@@H](Cc2ccc(O)cc2)C(=O)N2CCC[C@H]2C(=O)N[C@@H](CC(=O)O)C(=O)N2CCC[C@H]2C(=O)N[C@@H](CCC(=O)O)C(=O)NCC(=O)NCC(=O)NCC(N)=O)[C@@H](C)O)NC(=O)[C@H](CCCCN)NC(=O)[C@H](Cc2c[nH]c3ccccc23)NC(=O)[C@H](Cc2c[nH]c3ccccc23)NC(=O)[C@@H]2CCCN2C(=O)[C@H](Cc2ccc(O)cc2)NC(=O)[C@H](Cc2ccc(O)cc2)NC(=O)[C@H](CCCNC(=N)N)NC1=O [gallium-68 labelled]", "test": "PET/CT", "system": "male NOD-SCID mice, heart", "conditions": "intravenous, 3.7 MBq, 60 min", "measurement": "SUVmax", "result": "0.71 ± 0.13 SUV"}
{"SMILES": "COc1cc(OC)cc(C2=C3C(C)=C(I)C(/C=C/c4c[nH]c5ccccc45)=[N+]3[B-](F)(F)n3c(/C=C/c4c[nH]c5ccccc45)c(I)c(C)c32)c1", "system": "dichloromethane", "measurement": "Stokes shift", "result": "640 cm⁻¹"}
{"SMILES": "COc1cc(-c2nc3ccccc3s2)cc(CN2CCN(CC(=O)O)CCN(CC(=O)O)CC2)c1O", "test": "UV-Vis pH titration", "conditions": "25 °C, ionic strength 0.1 M NaCl", "measurement": "pKa3", "result": 7.92}
{"SMILES": "CCCCCC(O)C=CC1OC2OC(C1CC=CCCCC(=O)O)C2(F)F (stereo not drawn)", "system": "50 mM HCl buffer", "conditions": "pH 1.25, 23 °C", "measurement": "hydrolysis rate constant", "result": "0.00018 s⁻¹"}
{"SMILES": "COc1cc(CNC(=O)C[C@H](C)CCC=C(C)C)ccc1OCc1cn(-c2cccc(Cl)c2)nn1", "target or system": "HOP-62", "test": "SRB", "conditions": "10 µM, 48 h", "measurement": "growth percent", "result": "89.3%"}
{"SMILES": "CCCCCCCCCCCCCCCC(=O)N[C@@H](CCCCN)C(=O)N[C@@H](CCCCN)C(=O)N[C@@H](CO)C(=O)N[C@@H](CCCNC(=N)N)C(=O)N[C@@H](C)C(=O)N[C@@H](CC(C)C)C(=O)N[C@@H](Cc1ccccc1)C(N)=O", "system": "cynomolgus monkey, male", "conditions": "10 mg/kg, day 5", "measurement": "activated partial thromboplastin time", "result": "29.6 ± 2.9 s"}
{"SMILES": "CC(=O)N[C@H](CC(=O)O)C(=O)N[C@H](Cc1c[nH]c2ccccc12)C(=O)N[C@H](Cc1ccccc1)C(=O)N[C@H](CCCCN)C(=O)N[C@H](C)C(=O)N[C@H](Cc1ccccc1)C(=O)N[C@H](Cc1ccc(O)cc1)C(=O)N[C@H](CC(=O)O)C(=O)N[C@H](CCCCN)C(=O)N[C@@H](C(=O)N[C@H](C)C(=O)N[C@H](CCC(=O)O)C(=O)N[C@H](CCCCN)C(=O)N[C@H](Cc1ccccc1)C(=O)N[C@H](CCCCN)C(=O)N[C@H](CCC(=O)O)C(=O)N[C@H](C)C(=O)N[C@H](Cc1ccccc1)C(N)=O)C(C)C", "system": "statin-treated high-risk CHD men, plasma", "conditions": "oral, 100 mg daily, day 1, 0 to 2 h, mean, detected subjects only", "measurement": "AUC(0-t)", "result": "3.38 ng·h/mL"}
{"SMILES": "O=c1nc(NO)ccn1[C@@H]1O[C@H](CO)[C@@H](O)[C@H]1O", "test": "item: CYP3A4", "system": "normal rat, liver", "conditions": "oral, 80 mg/kg twice daily, 5 days", "scale": "relative to: untreated rats", "measurement": "protein level", "result": "0.4 fold"}
{"SMILES": "CNc1cc(OC)c(Nc2nccc(-c3cn(C4CC4)c4ccccc34)n2)cc1NC(=O)CCSCC(NC(C)=O)C(=O)O (stereo not drawn)", "test": "radio-HPLC, co-eluting peaks pooled", "system": "human, feces", "conditions": "dose not given, 0 to 240 h, sample holds 81.99% dose", "scale": "relative to: sample radioactivity", "measurement": "share of radioactivity", "result": "8.24%"}
{"SMILES": "CCCC[C@H](NC(=O)[C@H](CC(C)C)N(C)C(=O)CNC(=O)[C@@H](NC(=O)[C@H](Cc1ccccc1)NC(=O)[C@H](CCCCN)NC(=O)[C@@H](N)CC(=O)O)C(C)C)C(N)=O", "system": "anesthetized Gottingen minipig", "conditions": "subcutaneous, 3 µg/kg", "scale": "relative to: baseline", "measurement": "mean arterial pressure", "result": "-1.67 ± 2.95%"}
{"SMILES": "CC(C)[C@H](CO)Nc1nc(Nc2ccc(C(=O)NCCNS(=O)(=O)c3cccc4c(N(C)C)cccc34)c(Cl)c2)c2ncn(C(C)C)c2n1", "system": "ND2-SmoA1 mouse, medulloblastoma, medulloblastoma tumour", "conditions": "intraperitoneal, 20 mg/kg, 4 h", "measurement": "concentration", "result": "500 ± 200 nM"}
{"SMILES": "C=CC(=O)Nc1cc(Nc2nccc(-c3cn(C4CC4)c4ccccc34)n2)c(OC)cc1N(C)CCNC", "test": "LC-RAM/HRMS", "system": "human male, plasma", "conditions": "oral, 110 mg, 2 h", "scale": "relative to: total radioactivity", "measurement": "share of radioactivity", "result": "2.7%"}
{"SMILES": "COc1cc(CNC(=O)C[C@H](C)CCC=C(C)C)ccc1OCc1cn(-c2ccc(C#N)cc2)nn1", "target or system": "HOP-62", "test": "SRB", "conditions": "10 µM, 48 h", "measurement": "growth percent", "result": "88.6%"}
{"SMILES": "COc1ccc(-c2cc(=O)c3c(O)cc(O[C@@H]4O[C@H](CO[C@@H]5O[C@@H](C)[C@H](O)[C@@H](O)[C@H]5O)[C@@H](O)[C@H](O)[C@H]4O)cc3o2)cc1", "test": "short-term stability", "system": "rat plasma", "conditions": "8 h, room temperature, high QC level", "measurement": "measured concentration", "result": "2931 ± 17.8 ng/mL"}
{"SMILES": "C[N+](C)(C)CC(CC(=O)[O-])OC(=O)CCC(=O)Nc1ccn([C@@H]2O[C@H](CO)[C@@H](O)C2(F)F)c(=O)n1 (stereo partly drawn)", "system": "THU-treated rat plasma", "conditions": "3200.00 ng/mL, -80 to 20 °C, three freeze-thaw cycles, high QC", "measurement": "measured concentration", "result": "3080 ± 54.5 ng/mL"}
{"SMILES": "O=C(O)[C@@H]1C[C@@H](O)CN1C(=O)[C@@H]1CCCN1", "test": "potentiometric titration", "system": "water", "conditions": "37 °C, 0.15 mol/dm3 NaCl", "measurement": "pKa3", "result": 10.5}
{"SMILES": "C[C@H](CN(C)Cc1ccccc1)NC(=O)c1ccc(-c2noc(C(F)(F)[18F])n2)cc1", "test": "microPET", "system": "mouse", "conditions": "60 min after injection", "measurement": "brain uptake", "result": "2.86 ± 0.19 %ID/cc"}
{"SMILES": "CCCC(CCC)NC(=O)c1ccc(O)c(OC)c1", "test": "LC-MS", "system": "Sprague-Dawley rats, pooled sexes, plasma", "conditions": "oral, 200 mg/kg of parent drug, 1 h", "scale": "relative to: total peak area", "measurement": "metabolite peak area", "result": "24.3%"}
{"SMILES": "[2H]C([2H])([2H])NC(=O)c1ccc(N2C(=S)N(c3ccc(C#N)c(C(F)(F)F)c3)C(=O)C2(C)C)cc1F", "system": "human, male", "conditions": "oral, 160 mg, single dose, fed", "measurement": "t1/2", "result": "5.48 ± 1.71 days"}
{"SMILES": "O=C([O-])CN1CCN(CC(=O)[O-])CCN(CC(=O)NCC2CCC(C(=O)NC(Cc3ccc4ccccc4c3)C(=O)NCCCCC(NC(=O)NC(CCC(=O)O)C(=O)O)C(=O)O)CC2)CCN(CC(=O)[O-])CC1.[44Sc+3] (stereo not drawn)", "test": "PET/CT dosimetry", "system": "human patients, spleen", "conditions": "mean of 4 patients", "measurement": "residence time", "result": "0.06 h"}
{"SMILES": "C[C@H](CN(C)Cc1ccccc1)NC(=O)c1ccc(-c2noc(C(F)(F)[18F])n2)cc1", "test": "PET imaging", "system": "female Sprague-Dawley rats, muscle", "conditions": "intravenous, 1 min", "measurement": "tissue uptake", "result": "0.4 ± 0.29 SUV"}
{"SMILES": "O=C(CCc1ccc(CNC(C(=O)OC2CCCC2)C2CCCCC2)cn1)NO (stereo not drawn)", "system": "human, plasma", "conditions": "oral, 40 mg single dose, geometric mean", "measurement": "AUC(0-t)", "result": "152 ng·h/mL"}
{"SMILES": "CCCC(CCC)NC(=O)c1ccc(O)c(O)c1", "test": "LC-MS", "system": "Sprague-Dawley rat, both sexes, rat liver microsomes", "conditions": "10 µM of parent drug, 10 min, pH 7.4, with: NADPH", "scale": "relative to: parent drug at time zero", "measurement": "metabolite peak area", "result": "15.2%"}
{"SMILES": "COC(=O)c1ccc(-c2cn(Cc3cc(Cl)ccc3O[11CH3])nn2)cc1", "test": "PET, two-tissue compartment model", "system": "rhesus monkey, brain WB", "conditions": "dose not given", "measurement": "distribution volume", "result": "0.471 mL/cm³"}
{"SMILES": "O=C([O-])CN1CCN(CC(=O)[O-])CCN(CC(=O)NC[C@H]2CC[C@H](C(=O)N[C@H](Cc3cnc4ccccc4c3)C(=O)NCCCC[C@H](NC(=O)N[C@@H](CCC(=O)O)C(=O)O)C(=O)O)CC2)CCN(CC(=O)[O-])CC1.[64Cu+2]", "test": "PET/CT dosimetry OLINDA/EXM", "system": "healthy volunteers, thyroid", "conditions": "up to 24 h post-injection", "measurement": "absorbed dose", "result": "0.0143 mGy/MBq"}
{"SMILES": "COC(=O)C(c1ccccc1Cl)N1CCC2SC(=O)C=C2C1 (stereo not drawn)", "test": "LC-MS/MS", "system": "human plasma", "conditions": "50 ng/mL spiked, 45 days, -80 °C", "measurement": "measured concentration", "result": "50.6 ± 1.2 ng/mL"}
{"SMILES": "NC12CNCCNCC(NCc3ccc(CNC(=O)CCCC(=O)NCc4ccc(-c5nncnn5)cc4)cc3)(CNCCNC1)CNCCNC2.[64Cu+2]", "test": "OLINDA dosimetry", "system": "uterus", "conditions": "24 h pretargeting interval, with: huA33-TCO pretargeting", "measurement": "mean absorbed dose", "result": "0.0413 rad/mCi"}
{"SMILES": "OCc1cn(Cc2ccc(-c3noc(-c4ccc(OCC[18F])c(C(F)(F)F)c4)n3)cc2)nn1", "system": "female Lewis rat, spleen", "conditions": "intravenous, 5 min", "measurement": "tissue uptake", "result": "2.22 ± 0.23 %ID/g"}
